Experimental data collected from several papers.
Each numbered part is a random draw from the data of one study; scales do not carry over between parts. Positions count from the first letter of the parent shown.
UniProt Q13557, sequence (whole entry, looked up): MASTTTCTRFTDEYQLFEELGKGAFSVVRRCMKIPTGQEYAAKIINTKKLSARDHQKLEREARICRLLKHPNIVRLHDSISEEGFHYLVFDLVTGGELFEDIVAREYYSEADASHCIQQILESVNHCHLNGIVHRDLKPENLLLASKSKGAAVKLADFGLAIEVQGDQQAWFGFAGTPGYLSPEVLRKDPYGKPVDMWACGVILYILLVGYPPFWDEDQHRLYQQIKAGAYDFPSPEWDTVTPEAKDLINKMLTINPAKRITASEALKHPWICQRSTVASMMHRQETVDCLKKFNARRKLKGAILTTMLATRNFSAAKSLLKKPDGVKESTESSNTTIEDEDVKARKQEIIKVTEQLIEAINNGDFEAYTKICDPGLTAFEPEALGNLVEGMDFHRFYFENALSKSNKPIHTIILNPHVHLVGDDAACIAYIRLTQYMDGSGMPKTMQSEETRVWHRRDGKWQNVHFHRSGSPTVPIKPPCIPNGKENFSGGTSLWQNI

Block 1
Target: Interferon regulatory factor 7, full length, phosphomimetic (IRF7, Homo sapiens, UniProt Q92985, residues 1-503, S471D/S472D/S475D/S476D/S477D/S483D/S484D/S487D)
UniProt Q92985, sequence (whole entry, unmodified, looked up): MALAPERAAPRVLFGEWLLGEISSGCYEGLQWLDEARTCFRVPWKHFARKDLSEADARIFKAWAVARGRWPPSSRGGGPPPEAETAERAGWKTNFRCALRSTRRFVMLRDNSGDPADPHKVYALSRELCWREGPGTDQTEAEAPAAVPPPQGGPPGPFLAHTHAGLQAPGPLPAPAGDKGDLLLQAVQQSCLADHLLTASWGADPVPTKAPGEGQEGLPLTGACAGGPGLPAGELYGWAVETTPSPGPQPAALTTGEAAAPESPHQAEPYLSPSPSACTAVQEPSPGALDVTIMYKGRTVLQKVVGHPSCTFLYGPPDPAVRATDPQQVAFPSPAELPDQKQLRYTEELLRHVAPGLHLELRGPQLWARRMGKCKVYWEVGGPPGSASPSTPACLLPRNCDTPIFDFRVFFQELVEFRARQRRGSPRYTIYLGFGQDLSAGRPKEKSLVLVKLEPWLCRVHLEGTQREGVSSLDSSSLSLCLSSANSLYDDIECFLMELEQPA
Technique: protein-binding microarray
Molecule type: double-stranded DNA, one strand shown
Sample: in vitro
Tested at: 2200 nM top
Setting: 60-bp whole probe
Together with: salmon DNA 0.4 mg/ml
Baseline: random background probes
Direction: higher = stronger binding
Endpoint: fitted relative affinity
All sequences stand within: GCCTAGCAC … GTCTTGATTCGCTTGACGCTGCTG
GACGGTATCGGGTTTCGGCACGTGCTA: 0.661 z-score
CAGCTTTTATCCCTGACAGAGTGCTAG: 0.735 z-score
GACGAACTGGGGTAGCGAGACGTGCTA: -0.221 z-score
GACGGTTTCCTTTCCCTAACGTGCTAG: 4.65 z-score
TTAGGACTGGGTCTGGGTTAGTGCTAG: -0.774 z-score
TTAGGACTGGGTTTCGGATAGTGCTAG: 1.32 z-score
AAAATTTTAACCCTTATTCTGTGCTAG: -0.326 z-score
TTAGCTATCGGGACTGGGTTAGTGCTA: -0.313 z-score

Block 2
Variant: S11G
Target: ABI1, truncated, D143A, DHFR fusion (Arabidopsis thaliana)
Technique: DHFR PCA, deep sequencing
Sample: yeast
Setting: methotrexate growth selection, single substitutions
Baseline: wild-type fitted maximum
Direction: higher = stronger binding
Endpoint: relative binding score
Starting sequence: PYL1, truncated, DHFR fusion (Arabidopsis thaliana); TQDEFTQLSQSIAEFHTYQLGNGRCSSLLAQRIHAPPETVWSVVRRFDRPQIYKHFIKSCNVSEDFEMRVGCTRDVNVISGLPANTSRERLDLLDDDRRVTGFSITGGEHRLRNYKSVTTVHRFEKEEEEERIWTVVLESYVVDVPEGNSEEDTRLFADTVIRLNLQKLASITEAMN
together with: (+)-ABA 4.8 µM: 45.8%
together with: (+)-ABA 2500 µM: 101%
together with: (+)-ABA 710 µM: 103%
together with: (+)-ABA 0.0091 µM: 0.127%
together with: (+)-ABA 0.032 µM: 6.95%
together with: (+)-ABA 200 µM: 90%

Mixed results
PhoQ, residues 284 288 289 292 302 303 TASMAF  fold induction (PhoP, residues 12 14 15 18 19 SFCSL (Escherichia coli, UniProt P23836); Sort-seq, item: YFP reporter; E. coli; PhoQ-PhoP variant library, together with: 10 µM Mg2+; baseline: high Mg2+ state, higher = stronger signaling): 28.9
CC(=O)O/N=C1/C(c2c(O)[nH]c3cc(Br)ccc23)=Nc2ccccc21  remaining activity (Calcium/calmodulin-dependent protein kinase type II subunit delta (CAMK2D, Homo sapiens, UniProt Q13557); enzyme activity, inhibitor; 0.5 µM; baseline: control): 53.8%

Some of these lines once more (block 1):
AAAATTTTAACCCTTATTCTGTGCTAG: -0.326 z-score
